# Published values pooled from the literature.
# Parts stem from different laboratories: compare values within a part only. Positions count from the first letter of the parent shown.

# Study 1 — method: RNAcompete; form: RNA; sample: in vitro; tested at: 20 nM; setting: 7-mer, probes averaged, single round; relative to: mean of 7-mers; reading: higher = stronger binding
# Target: PABPC1L2, full length, GST fusion (mouse, UniProt A0ABA7IW68)
# Residues (chain): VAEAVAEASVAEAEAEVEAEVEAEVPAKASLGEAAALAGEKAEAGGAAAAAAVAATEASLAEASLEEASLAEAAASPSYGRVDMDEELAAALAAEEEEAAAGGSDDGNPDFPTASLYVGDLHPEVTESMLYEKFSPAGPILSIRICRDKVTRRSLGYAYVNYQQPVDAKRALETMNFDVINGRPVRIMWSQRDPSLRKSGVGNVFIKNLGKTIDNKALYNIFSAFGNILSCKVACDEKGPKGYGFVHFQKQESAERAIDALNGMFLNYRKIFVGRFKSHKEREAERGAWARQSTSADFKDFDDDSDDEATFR
Oligonucleotide,7-mer Z-score
UCGCCGG,-0.309
GUACCUG,-0.271
UAAGGCA,0.2
GAAACAC,1.16
AUGUUAC,-0.345
GACACUU,-0.184
CUGAGAA,0.229
GGUUUCU,-0.322

# Study 2 — target: CCNE1, cyclin fold, Cln2 fusion (human); method: yeast growth competition, sequencing; sample: yeast; setting: strong parent motif; relative to: not given; reading: higher = stronger binding
# Parent: viral docking peptide; KGVKRKLFAEDSS; partner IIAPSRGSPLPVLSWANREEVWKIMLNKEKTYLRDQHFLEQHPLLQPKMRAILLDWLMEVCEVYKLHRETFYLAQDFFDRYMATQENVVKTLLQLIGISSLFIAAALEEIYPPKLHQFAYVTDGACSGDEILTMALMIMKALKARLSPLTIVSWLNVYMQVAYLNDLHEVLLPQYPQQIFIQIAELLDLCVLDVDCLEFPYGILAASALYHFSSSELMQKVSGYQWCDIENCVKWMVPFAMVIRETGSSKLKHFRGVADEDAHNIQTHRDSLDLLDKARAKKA
Change,normalised enrichment score
V3W,5.24
K6R,7.88
G2Q,7.26

# Study 3 — method: RNA Bind-n-Seq; form: RNA; sample: in vitro; tested at: 15 pmol; setting: 4-mer, random 30-nt RNA, single round; together with: 3 µM DMDA-PatA, 2 mM AMP-PNP; relative to: input library; reading: higher = stronger binding
# Target: Eukaryotic initiation factor 4A-I (EIF4A1, Homo sapiens, UniProt P60842, residues 1-406, full length assumed)
# Sequence of UniProt P60842 (whole entry, looked up): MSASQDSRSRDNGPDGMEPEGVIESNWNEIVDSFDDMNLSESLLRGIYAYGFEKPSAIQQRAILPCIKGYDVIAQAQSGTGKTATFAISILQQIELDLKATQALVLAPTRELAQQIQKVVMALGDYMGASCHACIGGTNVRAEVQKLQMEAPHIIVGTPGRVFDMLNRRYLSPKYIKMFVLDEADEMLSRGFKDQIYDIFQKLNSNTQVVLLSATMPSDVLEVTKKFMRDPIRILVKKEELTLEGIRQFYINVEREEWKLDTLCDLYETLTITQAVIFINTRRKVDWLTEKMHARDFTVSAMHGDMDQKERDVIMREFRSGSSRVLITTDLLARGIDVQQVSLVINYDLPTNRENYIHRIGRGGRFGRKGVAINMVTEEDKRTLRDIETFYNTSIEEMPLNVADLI
Oligonucleotide,4-mer enrichment
CGCU,0.879 fold
AUCU,0.993 fold
GUCU,1.01 fold
AAUC,0.762 fold
CUCA,0.437 fold
UAGA,1.27 fold
AAGU,1.34 fold
GGCG,1.02 fold

# Study 4 — target: UBE2A UBC core domain (UniProt P49459); method: yeast two-hybrid; sample: yeast; setting: mostly zero background; relative to: not given; reading: higher = stronger interaction
# Sequence of UniProt P49459 (whole entry, looked up): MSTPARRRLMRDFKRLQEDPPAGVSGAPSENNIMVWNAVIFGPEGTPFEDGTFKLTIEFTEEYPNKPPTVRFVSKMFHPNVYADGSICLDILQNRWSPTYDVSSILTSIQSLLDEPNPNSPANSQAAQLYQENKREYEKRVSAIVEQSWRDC
# B1: RNF2 RING domain (UniProt Q99496); chain SPRSLHSELMCPICLDMLKNTMTTKECLHRFCADCIITALRSGNKECPTCRKKLVSKRSLR
# B2: RNF183 RING domain (UniProt Q96D59); chain EQQGRELEAECPVCWNPFNNTFHTPKMLDCCHSFCVECLAHLSLVTPARRRLLCPLCRQPTVLASGQP
# B3: DEF8 RING domain (UniProt Q6ZN54); chain AGRLGCSLTEIHTLFAKHIKLDCERCQAKGFVCELCREGDVLFPFDSHTSVCADCSAVFHRDCYYDNSTTCPKCARLSLRK
# B4: RNF31 RING domain (UniProt Q96EP0); chain AFLRRLLAQECAVCGWALPHNRMQALTSCECTICPDCFRQHFTIALKEKHITDMVCPACGRPDLTDDTQLL
# B5: RNF187 RING domain (UniProt Q5TA31); chain ALPAGPAEAACALCQRAPREPVRADCGHRFCRACVVRFWAEEDGPFPCPECADDCWQRAVEP
# B6: TRIM37 RING domain (UniProt O94972); chain SVESIAEVFRCFICMEKLRDARLCPHCSKLCCFSCIRRWLTEQRAQCPHCRAPLQLRELVN
# B7: TRIM26 RING domain (UniProt Q12899); chain PLRSLEEEVTCSICLDYLRDPVTIDCGHVFCRSCTTDVRPISGSRPVCPLCKKPFKKENIRP
# B8: RNF122 RING domain (UniProt Q9H9V4); chain AKKLQLYGQTCAVCLEDFKGKDELGVLPCQHAFHRKCLVKWLEVRCVCPMCNKPIASPSEAT
# B9: TRIM31 RING domain (UniProt Q9BZY9); chain FVNKLQEEVICPICLDILQKPVTIDCGHNFCLKCITQIGETSCGFFKCPLCKTSVRKNAIRF
Molecule,lacZ reporter activity
MNDVLENELQCIICSEYFIEAVTLNCAHSFCSYCINEWMKRKIECPICRKDIKSKTYSL (RNF8 RING domain (UniProt O76064)),0
B1 (RNF2 RING domain),0
B2 (RNF183 RING domain),0
B3 (DEF8 RING domain),0
B4 (RNF31 RING domain),0
B5 (RNF187 RING domain),0
B6 (TRIM37 RING domain),0
B7 (TRIM26 RING domain),0
B8 (RNF122 RING domain),0
LGTKLEAKYLCSACRNVLRRPFQAQCGHRYCSFCLASILSSGPQNCAACVHEGIYEEGIS (TRAF2 RING domain (UniProt Q12933)),0
B9 (TRIM31 RING domain),0

# For quick reference, copied from above (study 3):
Oligonucleotide,4-mer enrichment
AUCU,0.993 fold
GUCU,1.01 fold
AAUC,0.762 fold
CUCA,0.437 fold
UAGA,1.27 fold
